Experimental data collected from several papers.
Compare with care: the assays were run in different laboratories. ± marks the error that the study gave.
Target: Tyrosine-protein kinase ITK/TSK (ITK, Homo sapiens, UniProt Q08881)
Sequence (Q08881 1-620, as in one of the studies): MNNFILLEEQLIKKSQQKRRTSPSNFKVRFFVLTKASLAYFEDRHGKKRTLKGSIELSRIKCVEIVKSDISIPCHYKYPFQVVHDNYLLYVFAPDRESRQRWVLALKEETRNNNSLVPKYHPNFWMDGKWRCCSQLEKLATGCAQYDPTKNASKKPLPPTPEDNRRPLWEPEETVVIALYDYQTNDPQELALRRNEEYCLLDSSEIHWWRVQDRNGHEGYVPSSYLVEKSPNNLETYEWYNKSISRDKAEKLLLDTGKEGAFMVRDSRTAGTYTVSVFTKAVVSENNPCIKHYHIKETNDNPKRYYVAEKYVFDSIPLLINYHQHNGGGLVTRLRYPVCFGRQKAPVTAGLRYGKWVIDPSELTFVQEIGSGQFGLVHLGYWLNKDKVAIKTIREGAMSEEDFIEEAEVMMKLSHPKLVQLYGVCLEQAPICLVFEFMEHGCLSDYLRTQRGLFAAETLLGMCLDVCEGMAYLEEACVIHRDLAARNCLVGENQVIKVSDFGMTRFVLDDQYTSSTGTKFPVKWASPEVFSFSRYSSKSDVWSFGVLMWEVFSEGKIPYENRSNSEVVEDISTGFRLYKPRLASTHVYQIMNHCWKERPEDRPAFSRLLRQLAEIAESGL

C=CC(=O)N1CCC([C@@H]2CCNc3c(C(N)=O)c(-c4ccc(Oc5ccccc5)cc4)nn32)CC1  remaining activity (kinase activity, inhibitor, HotSpot radiometric; 100 nM, with: ATP 10 µM): 85.2%
CNc1ncc2c(/C=C/C(=O)N3CCC(OC)CC3)nn(Cc3cccc(C(F)(F)F)c3)c2n1  remaining activity (kinase activity, inhibitor; 1 µM; relative to: untreated control): 83%
COc1cc(N2CCN(C)CC2)ccc1Nc1nc(N)n(C(=S)NCc2c(Cl)cccc2Cl)n1  remaining activity (enzyme activity; 10 µM; relative to: control): 0.5%
C=CC(=O)N1CCC(C(=O)NCC(=O)N2CCN(c3nc(-c4cnc(N)nc4C(F)F)nc(N4CCOCC4)n3)CC2)CC1  remaining binding (KINOMEscan; 1 µM): 99%
COc1ccc(F)cc1C(=O)NCc1ccc(-c2nn([C@@H](C)C(F)(F)F)c(N)c2C(N)=O)cc1  remaining activity (kinase activity, inhibitor, HotSpot radiometric; 100 nM, with: ATP 10 µM): 106 ± 3.9%
C1=C/COCc2cc(ccc2OCCN2CCCC2)Nc2nccc(n2)-c2cccc(c2)COC/1  percent of control (concentration not given): 90%
C[C@@H](c1ccc(-n2cnc3c(N)ncnc32)cc1)N1CCc2nn(C)c(Cc3ccccc3)c2C1=O  remaining binding (KINOMEscan; 0.1 µM; relative to: DMSO control): 67%
CCN(CC)c1ccc(C2=NNC(=O)CC2C)cc1[N+](=O)[O-] (stereo not shown)  remaining activity (enzyme activity, inhibitor; 10 µM; relative to: vehicle): 97%
Cc1cc(Nc2cc(N3CCN(C)CC3)nc(Sc3ccc(NC(=O)C4CC4)cc3)n2)[nH]n1  remaining activity (kinase activity, KinaseProfiler; 0.03 µM, species human; relative to: control): 97%
C=CC(=O)N1CCC(COCC(=O)N2CCN(c3nc(-c4cnc(N)nc4C(F)F)nc(N4CCOC[C@@H]4C)n3)CC2)CC1  remaining binding (KINOMEscan; 1 µM; relative to: DMSO control): 66%
O=C(NC1CCC1)c1ccc2nc(-c3cccc(NS(=O)(=O)NCCN4CCCCC4)c3)cn2c1  remaining activity (enzyme activity; 10 µM): 100%
COc1cc(F)ccc1-c1ncnc(Nc2cccc(C[S@](C)(=N)=O)c2)n1  remaining activity (kinase activity; 10 µM, with: 10 µM ATP): 83%
CCCOc1ccc(OC)c(F)c1C(=O)c1ccc(C(=O)N[C@@H]2CNC[C@H]2NC(=O)c2ccc3[nH]ncc3c2)cc1  remaining activity (enzyme activity; 10 µM): 95%
[2H]c1cc(C)c(NC(=O)c2cnc(Nc3cc(N4CCC(O)CC4)nc(C)n3)s2)c(Cl)c1  inhibition (0.001 µM): < 50%
CC#CC(=O)N1CCC[C@H]1c1nc(-c2ccc(C(=O)Nc3ccccn3)cc2)c2c(N)nccn12  remaining activity (kinase activity, inhibitor, HotSpot radiometric; 100 nM, with: ATP 10 µM): 97.5 ± 1.3%
COc1cc(C)c(Sc2cnc(NC(=O)c3ccc(N4CCN(CCCCCCCNC(=O)COc5cccc6c5C(=O)N(C5CCC(=O)NC5=O)C6=O)CC4)cc3)s2)cc1C(=O)N1CCN(C(C)=O)CC1 (stereo not shown)  Dmax concentration (degrader; HuT78 or DERL-2; 16 h): ~1 µM
